Measured values of several laboratories.
Compare with care: the assays were run in different laboratories.
Target: B2 bradykinin receptor (BDKRB2, Homo sapiens, UniProt P30411)
UniProt P30411, sequence (whole entry, looked up): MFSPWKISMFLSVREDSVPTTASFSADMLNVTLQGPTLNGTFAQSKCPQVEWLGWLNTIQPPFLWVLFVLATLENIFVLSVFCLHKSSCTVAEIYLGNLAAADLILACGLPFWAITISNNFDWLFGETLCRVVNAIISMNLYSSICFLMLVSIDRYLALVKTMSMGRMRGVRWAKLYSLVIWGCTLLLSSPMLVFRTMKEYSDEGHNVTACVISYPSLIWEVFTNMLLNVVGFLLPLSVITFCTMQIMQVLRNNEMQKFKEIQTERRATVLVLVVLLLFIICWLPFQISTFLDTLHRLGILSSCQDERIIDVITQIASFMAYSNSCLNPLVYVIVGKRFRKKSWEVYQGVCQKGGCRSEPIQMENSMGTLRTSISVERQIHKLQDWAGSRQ

For `Cc1[nH]nc2c1N=C(c1ccccc1Cl)c1cnc(N3CCOCC3)cc1N2`, the inhibition was -1% (cell-free assay; 10 µM).
With `Cn1ccc2cc(-n3c(=O)[nH]c4sc5c(c4c3=O)CCCC5)ccc21` the inhibition was 5% (cell-free assay, radioligand; 10 µM).
The inhibition of `O=C1c2sc(-c3ccc(N4CCC(F)C4)nc3F)nc2CCN1c1cccnc1` (centres unmarked) is reported as 7% (ligand displacement, radioligand; 1 µM).
`C[Si](C)(C)C[C@@H](CN)CC(=O)O` has an inhibition of -1% (ligand displacement, radioligand; 75 µM).
`CO[C@@H](C)c1c(NC(=O)Nc2cnc(-n3nccn3)c(C(F)(F)F)c2)cnc2sc(C)nc12` gave an inhibition of 4.4% (ligand displacement, radioligand; 10 µM).
For `CCC(=O)N(C)c1ccc(Cl)c(Cl)c1`, the inhibition was less than 10% (ligand displacement, radioligand; 10 µM).
`C[Si]1(C[C@H](CN)CC(=O)O)CCCC1` gave an inhibition of -14% (ligand displacement, radioligand; 70 µM).
With `COCC(=O)N1CCc2cc(-c3csc(NC(=O)c4cc(OC)cc(OC)c4)n3)ccc21` the inhibition was 3% (cell-free assay; 10 µM).

A few entries again:
`C[Si](C)(C)C[C@@H](CN)CC(=O)O` has an inhibition of -1% (ligand displacement, radioligand; 75 µM).
